Measurements from different studies.
A part holds a random share of what one study measured.

Study 1 — method: aptamer microarray, sandwich; molecule type: DNA with 2'F-ANA; sample: in vitro; concentration: 200 nM; with: Cy3 exosite-II aptamer, 400 nM; direction: higher = stronger binding; sequence: GGTTGGTGTGGTTGG
Target: Prothrombin, mature alpha-thrombin (F2, Homo sapiens, UniProt P00734)
Setting: whole 15-mer aptamer, many near background
For `2'F-ANA at 1 3 5 6 8 10 15`, “mean fluorescence intensity” read 44.3 a.u.
For `2'F-ANA at 1 3 6 8 9 10 11 14`, “mean fluorescence intensity” read 77.8 a.u.
Under “mean fluorescence intensity”, `2'F-ANA at 1 2 3 5 6 8 9 10 12 14 15` is recorded as 49.1 a.u.
`2'F-ANA at 3 7 12 14` — result for “mean fluorescence intensity”: 819 a.u.
For `2'F-ANA at 9 10 14 15`, “mean fluorescence intensity” read 107 a.u.
`2'F-ANA at 2 4 5 6 9 10 11 12 13 15`: “mean fluorescence intensity” 57.9 a.u.
`2'F-ANA at 1 3 4 5 8 11 12 13 15` — result for “mean fluorescence intensity”: 74 a.u.
Under “mean fluorescence intensity”, `2'F-ANA at 1 4 5 6 7 8 10 11 12 13 14 15` is recorded as 238 a.u.

Study 2 — method: RNA Bind-n-Seq; molecule type: RNA; sample: in vitro; concentration: 1 µM; setting: whole 134-nt RNA, ends assumed; with: 150 mM KCl; reference: input library; direction: higher = stronger binding
Target: Ras GTPase-activating protein-binding protein 1, C-terminal RGG region (G3BP1, Homo sapiens, UniProt Q13283)
Sequence of UniProt Q13283 (whole entry, looked up): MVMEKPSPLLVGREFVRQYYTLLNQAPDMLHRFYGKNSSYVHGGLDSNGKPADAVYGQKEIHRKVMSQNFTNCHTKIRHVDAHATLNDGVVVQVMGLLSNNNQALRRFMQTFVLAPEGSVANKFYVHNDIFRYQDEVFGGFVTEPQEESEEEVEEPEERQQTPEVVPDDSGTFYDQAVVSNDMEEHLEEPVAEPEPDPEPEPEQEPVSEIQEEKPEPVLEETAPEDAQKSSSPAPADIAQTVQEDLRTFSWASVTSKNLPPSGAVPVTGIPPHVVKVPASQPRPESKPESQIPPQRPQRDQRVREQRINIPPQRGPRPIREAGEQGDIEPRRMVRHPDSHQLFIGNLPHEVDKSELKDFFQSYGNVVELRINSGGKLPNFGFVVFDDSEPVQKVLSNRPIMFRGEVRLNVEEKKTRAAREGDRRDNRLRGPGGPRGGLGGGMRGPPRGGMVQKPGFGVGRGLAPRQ
With `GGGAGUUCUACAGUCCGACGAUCUCAAGUCCUGUGCUACACAUCGUAUGUACCGAAUCGGUUUUUGGAAAAAGGAGGAAAGUAUUAUGUUACGCCGUUCGGAUCUGCACUUCCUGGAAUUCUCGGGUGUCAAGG` the log2 enrichment was -1.15.
For `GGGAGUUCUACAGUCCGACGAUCGUCCUGUGCUACACAUCGUAUGUACCGAAUCGGGGUUUGGGGUGGGGUUUUUUUGGGGAAAGUAUUAUGUUACGCCGUUCGGAUCUGCACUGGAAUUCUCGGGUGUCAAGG`, the log2 enrichment was 1.75.
For `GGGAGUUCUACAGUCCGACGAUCCCUCAAGUCCUGUGCUACACAUCGUAUGUACCGAAUCGGGGCGGGCGGCGGGGAAAGUAUUAUGUUACGCCGUUCGGAUCUGCACUUCCAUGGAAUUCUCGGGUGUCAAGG`, the log2 enrichment was 0.0869.
With `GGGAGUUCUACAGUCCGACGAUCUCCUCAAGUCCUGUGCUACACAUCGUAUGUACCGAAUCGGCGGGCGGCGGGAAAGUAUUAUGUUACGCCGUUCGGAUCUGCACUUCCAGCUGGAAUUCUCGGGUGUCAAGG` the log2 enrichment was -0.709.
With `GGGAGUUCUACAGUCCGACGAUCGUCCUGUGCUACACAUCGUAUGUACCGAAUCGGGGAAAAAGGGGAAAAAGGGGUGGGGAAAGUAUUAUGUUACGCCGUUCGGAUCUGCACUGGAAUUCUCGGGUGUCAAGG` the log2 enrichment was 1.71.
`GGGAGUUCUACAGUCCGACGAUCGCGGGAAGUAAAAACAAAUGGAAAUGCUUCGGAUAGUGGCAGGGGUGGGGGUUGCUAAGGAAAGGGUGGGAUGGGAGUGGGUAAAGAGUUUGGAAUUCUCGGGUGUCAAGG` gave a log2 enrichment of 1.26.
With `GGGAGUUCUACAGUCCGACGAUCUCAAGUCCUGUGCUACACAUCGUAUGUACCGAAUCGGGUUUGGUUUGGGGUUUGGAAAGUAUUAUGUUACGCCGUUCGGAUCUGCACUUCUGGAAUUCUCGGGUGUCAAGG` the log2 enrichment was -1.18.

Study 3 — method: universal PBM; molecule type: double-stranded DNA, one strand shown; sample: in vitro; concentration: 600 nM; direction: higher = stronger binding
Target: Sal-like protein 4, full length isoform A (SALL4, Homo sapiens, UniProt Q9UJQ4, residues 1-1053)
Sequence of UniProt Q9UJQ4 (whole entry, looked up): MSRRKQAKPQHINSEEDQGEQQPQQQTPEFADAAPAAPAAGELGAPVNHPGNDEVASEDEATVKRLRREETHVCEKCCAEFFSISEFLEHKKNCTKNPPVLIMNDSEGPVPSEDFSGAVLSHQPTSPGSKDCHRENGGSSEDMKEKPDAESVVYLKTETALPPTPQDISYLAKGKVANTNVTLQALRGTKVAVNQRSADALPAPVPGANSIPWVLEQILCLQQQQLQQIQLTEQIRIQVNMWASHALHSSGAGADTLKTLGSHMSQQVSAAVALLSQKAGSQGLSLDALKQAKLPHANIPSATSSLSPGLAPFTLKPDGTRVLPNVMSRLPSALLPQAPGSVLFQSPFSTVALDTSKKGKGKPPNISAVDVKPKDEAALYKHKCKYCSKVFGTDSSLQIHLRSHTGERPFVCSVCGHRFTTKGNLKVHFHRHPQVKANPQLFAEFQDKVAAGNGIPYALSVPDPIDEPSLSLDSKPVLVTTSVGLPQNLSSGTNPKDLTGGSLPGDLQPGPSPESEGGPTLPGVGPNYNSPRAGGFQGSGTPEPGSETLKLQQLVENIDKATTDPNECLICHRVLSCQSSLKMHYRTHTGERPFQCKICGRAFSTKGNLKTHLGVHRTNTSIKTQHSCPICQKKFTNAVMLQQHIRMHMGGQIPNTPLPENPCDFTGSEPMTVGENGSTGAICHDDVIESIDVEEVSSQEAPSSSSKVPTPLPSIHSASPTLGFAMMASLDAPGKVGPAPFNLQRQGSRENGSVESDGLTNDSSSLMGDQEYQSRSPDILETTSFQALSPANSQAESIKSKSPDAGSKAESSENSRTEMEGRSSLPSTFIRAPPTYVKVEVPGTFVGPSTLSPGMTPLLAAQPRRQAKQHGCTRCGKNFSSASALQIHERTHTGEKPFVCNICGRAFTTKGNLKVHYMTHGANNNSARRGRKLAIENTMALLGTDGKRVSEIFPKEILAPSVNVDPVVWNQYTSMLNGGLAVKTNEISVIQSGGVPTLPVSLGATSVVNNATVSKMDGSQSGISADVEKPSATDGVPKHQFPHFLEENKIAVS
Setting: 8-mer, flanks averaged, mean of replicates
For `TGATCGAA`, the E-score was 0.0145.
For `CAGCCCTC`, the E-score was -0.264.
`GTCCATCA` has an E-score of 0.0218.
With `ATCTTTTC` the E-score was 0.147.
For `ACGAGGAA`, the E-score was 0.0264.
For `TGAGTTAA`, the E-score was 0.123.

Mixed results
`PhoQ, residues 284 288 289 292 302 303 SSLVEF` has a fold induction of 4.85 (PhoP, residues 12 14 15 18 19 LHHVQ (Escherichia coli, UniProt P23836); Sort-seq, item: YFP reporter; E. coli; PhoQ-PhoP variant library, with: 10 µM Mg2+; reference: high Mg2+ state, higher = stronger signaling).

For quick reference, copied from above (study 2):
With `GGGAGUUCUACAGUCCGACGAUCUCAAGUCCUGUGCUACACAUCGUAUGUACCGAAUCGGUUUUUGGAAAAAGGAGGAAAGUAUUAUGUUACGCCGUUCGGAUCUGCACUUCCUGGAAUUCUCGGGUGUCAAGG` the log2 enrichment was -1.15.
With `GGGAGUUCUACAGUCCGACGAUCUCCUCAAGUCCUGUGCUACACAUCGUAUGUACCGAAUCGGCGGGCGGCGGGAAAGUAUUAUGUUACGCCGUUCGGAUCUGCACUUCCAGCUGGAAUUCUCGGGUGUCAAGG` the log2 enrichment was -0.709.
For `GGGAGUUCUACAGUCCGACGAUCCCUCAAGUCCUGUGCUACACAUCGUAUGUACCGAAUCGGGGCGGGCGGCGGGGAAAGUAUUAUGUUACGCCGUUCGGAUCUGCACUUCCAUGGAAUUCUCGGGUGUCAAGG`, the log2 enrichment was 0.0869.
